Published values gathered from unrelated publications.
Numbered parts are unrelated; each lists some results of a single study.
Sequence of UniProt P51812 (whole entry, looked up): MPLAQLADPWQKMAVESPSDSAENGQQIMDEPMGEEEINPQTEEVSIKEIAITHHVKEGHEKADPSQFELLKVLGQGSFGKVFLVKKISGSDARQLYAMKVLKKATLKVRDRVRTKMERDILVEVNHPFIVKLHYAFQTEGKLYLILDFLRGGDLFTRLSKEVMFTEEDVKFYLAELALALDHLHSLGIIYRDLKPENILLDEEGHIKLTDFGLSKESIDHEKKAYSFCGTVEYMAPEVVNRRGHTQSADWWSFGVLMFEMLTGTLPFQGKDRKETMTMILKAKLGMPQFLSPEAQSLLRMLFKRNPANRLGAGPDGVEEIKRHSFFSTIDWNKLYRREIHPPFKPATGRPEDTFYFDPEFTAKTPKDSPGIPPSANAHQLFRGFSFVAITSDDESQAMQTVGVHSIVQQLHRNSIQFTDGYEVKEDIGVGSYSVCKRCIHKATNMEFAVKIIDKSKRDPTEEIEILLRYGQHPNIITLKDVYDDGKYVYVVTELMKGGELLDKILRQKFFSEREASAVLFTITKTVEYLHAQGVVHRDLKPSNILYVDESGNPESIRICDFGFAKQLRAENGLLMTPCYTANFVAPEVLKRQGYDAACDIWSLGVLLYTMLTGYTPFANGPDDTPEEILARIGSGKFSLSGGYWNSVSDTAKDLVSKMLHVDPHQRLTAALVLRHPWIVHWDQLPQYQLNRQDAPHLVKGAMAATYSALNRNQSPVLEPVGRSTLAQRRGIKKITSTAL
Sequence of UniProt Q8TDC3 (whole entry, looked up): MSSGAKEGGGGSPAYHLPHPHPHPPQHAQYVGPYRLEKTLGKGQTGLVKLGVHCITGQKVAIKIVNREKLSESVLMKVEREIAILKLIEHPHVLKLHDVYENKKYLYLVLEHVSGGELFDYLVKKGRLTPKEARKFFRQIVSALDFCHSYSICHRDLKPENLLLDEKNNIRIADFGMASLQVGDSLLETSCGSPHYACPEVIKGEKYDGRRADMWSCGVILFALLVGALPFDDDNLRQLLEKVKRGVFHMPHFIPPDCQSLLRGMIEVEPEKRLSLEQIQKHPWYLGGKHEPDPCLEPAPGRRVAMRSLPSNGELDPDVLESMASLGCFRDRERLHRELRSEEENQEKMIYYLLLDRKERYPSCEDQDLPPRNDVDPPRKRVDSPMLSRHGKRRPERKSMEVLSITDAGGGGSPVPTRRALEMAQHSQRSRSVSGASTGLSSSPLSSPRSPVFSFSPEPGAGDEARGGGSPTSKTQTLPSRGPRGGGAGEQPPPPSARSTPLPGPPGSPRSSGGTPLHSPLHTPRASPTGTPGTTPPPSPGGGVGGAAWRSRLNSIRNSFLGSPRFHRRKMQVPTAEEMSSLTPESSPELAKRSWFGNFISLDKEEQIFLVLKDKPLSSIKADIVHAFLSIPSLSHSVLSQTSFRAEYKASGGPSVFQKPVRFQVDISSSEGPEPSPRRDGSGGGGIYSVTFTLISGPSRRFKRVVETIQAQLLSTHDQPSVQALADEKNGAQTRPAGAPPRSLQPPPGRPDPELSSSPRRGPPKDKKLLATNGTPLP
Sequence of UniProt Q16620 (whole entry, looked up): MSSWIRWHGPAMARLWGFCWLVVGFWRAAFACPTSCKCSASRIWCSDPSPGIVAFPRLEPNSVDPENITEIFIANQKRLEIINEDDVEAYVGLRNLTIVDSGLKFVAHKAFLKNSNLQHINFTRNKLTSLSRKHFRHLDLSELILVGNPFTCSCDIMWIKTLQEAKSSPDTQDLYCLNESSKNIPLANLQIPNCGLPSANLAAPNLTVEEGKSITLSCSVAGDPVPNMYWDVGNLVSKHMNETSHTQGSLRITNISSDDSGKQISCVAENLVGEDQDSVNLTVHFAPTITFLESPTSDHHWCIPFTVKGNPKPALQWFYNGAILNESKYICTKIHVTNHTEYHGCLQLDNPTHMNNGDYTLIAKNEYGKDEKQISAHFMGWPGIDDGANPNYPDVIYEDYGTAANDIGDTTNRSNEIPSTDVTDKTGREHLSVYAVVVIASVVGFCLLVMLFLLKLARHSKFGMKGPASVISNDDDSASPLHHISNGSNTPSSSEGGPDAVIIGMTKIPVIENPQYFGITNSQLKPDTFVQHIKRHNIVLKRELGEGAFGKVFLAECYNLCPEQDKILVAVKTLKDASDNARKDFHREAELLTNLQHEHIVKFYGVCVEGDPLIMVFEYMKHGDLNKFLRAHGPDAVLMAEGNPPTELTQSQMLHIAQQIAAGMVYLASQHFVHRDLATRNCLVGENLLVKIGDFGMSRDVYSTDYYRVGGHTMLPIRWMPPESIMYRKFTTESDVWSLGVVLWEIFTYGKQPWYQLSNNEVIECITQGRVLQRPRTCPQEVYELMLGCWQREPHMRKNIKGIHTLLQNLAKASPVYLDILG
Sequence of UniProt P49759 (whole entry, looked up): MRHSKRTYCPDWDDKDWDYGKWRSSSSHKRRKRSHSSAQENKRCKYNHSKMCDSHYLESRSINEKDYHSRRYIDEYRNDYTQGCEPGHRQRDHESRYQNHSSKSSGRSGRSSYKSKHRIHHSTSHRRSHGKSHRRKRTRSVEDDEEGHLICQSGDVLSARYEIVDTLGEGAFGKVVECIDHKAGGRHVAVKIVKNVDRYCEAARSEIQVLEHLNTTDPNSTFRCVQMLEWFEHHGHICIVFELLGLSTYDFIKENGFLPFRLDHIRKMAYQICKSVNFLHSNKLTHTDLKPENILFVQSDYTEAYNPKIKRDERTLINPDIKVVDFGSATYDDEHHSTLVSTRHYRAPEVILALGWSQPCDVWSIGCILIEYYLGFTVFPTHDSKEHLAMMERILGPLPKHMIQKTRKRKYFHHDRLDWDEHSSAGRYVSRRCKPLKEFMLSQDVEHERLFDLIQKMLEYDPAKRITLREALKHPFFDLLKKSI

Series 1
Compound: CN1CCN(c2cnc3c(C4CCN(C(=O)c5ccc(OC(F)(F)F)cc5N)CC4)ncnc3c2)CC1
Observed: cell-free assay
Method: competition with immobilised ligand
Concentration: 1 µM
Quantity: remaining binding
BDNF/NT-3 growth factors receptor (NTRK2, Homo sapiens, UniProt Q16620): 100%
Ephrin type-A receptor 5 (EPHA5, Homo sapiens, UniProt P54756): 91%
Serine/threonine-protein kinase BRSK1 (BRSK1, Homo sapiens, UniProt Q8TDC3): 100%
Tyrosine-protein kinase ABL1, phosphorylated (ABL1, Homo sapiens, UniProt P00519, Q252H): 100%
Mast/stem cell growth factor receptor Kit (KIT, Homo sapiens, UniProt P10721, A829P): 100%
Ribosomal protein S6 kinase alpha-4, C-terminal kinase domain (RPS6KA4, Homo sapiens, UniProt O75676): 100%
Activated CDC42 kinase 1 (TNK2, Homo sapiens, UniProt Q07912): 100%
Ribosomal protein S6 kinase alpha-3, N-terminal kinase domain (RPS6KA3, Homo sapiens, UniProt P51812): 85%
Dual specificity protein kinase CLK1 (CLK1, Homo sapiens, UniProt P49759): 100%
Serine/threonine-protein kinase N1 (PKN1, Homo sapiens, UniProt Q16512): 100%
Serine/threonine-protein kinase DCLK3 (DCLK3, Homo sapiens, UniProt Q9C098): 91%
Dual specificity tyrosine-phosphorylation-regulated kinase 1A (DYRK1A, Homo sapiens, UniProt Q13627): 100%
Epidermal growth factor receptor (EGFR, Homo sapiens, UniProt P00533, L861Q): 100%

Series 2
Target: Interferon regulatory factor 7, full length, phosphomimetic (IRF7, Homo sapiens, UniProt Q92985, residues 1-503, S471D/S472D/S475D/S476D/S477D/S483D/S484D/S487D)
Sequence of UniProt Q92985 (whole entry, unmodified, looked up): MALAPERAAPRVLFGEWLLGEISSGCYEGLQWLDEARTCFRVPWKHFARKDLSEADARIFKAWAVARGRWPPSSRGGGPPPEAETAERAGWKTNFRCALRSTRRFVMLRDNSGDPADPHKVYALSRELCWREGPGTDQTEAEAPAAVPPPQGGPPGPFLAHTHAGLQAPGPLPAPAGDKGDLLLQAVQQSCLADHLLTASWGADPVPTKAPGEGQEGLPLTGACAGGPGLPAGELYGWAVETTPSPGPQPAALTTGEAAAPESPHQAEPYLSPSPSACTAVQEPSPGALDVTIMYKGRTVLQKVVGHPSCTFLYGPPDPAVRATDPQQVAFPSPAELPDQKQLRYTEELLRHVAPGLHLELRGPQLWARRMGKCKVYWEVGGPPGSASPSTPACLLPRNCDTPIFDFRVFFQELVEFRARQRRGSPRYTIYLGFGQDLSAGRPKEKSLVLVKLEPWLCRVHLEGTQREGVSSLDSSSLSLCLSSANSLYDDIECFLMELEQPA
Method: protein-binding microarray
Form: double-stranded DNA, one strand shown
Sample: in vitro
Concentration: 2200 nM top
Setting: 60-bp whole probe
Added: salmon DNA 0.4 mg/ml
Reference: random background probes
Direction: higher = stronger binding
Quantity: fitted relative affinity
Shared flanks, not repeated: GCCTAGCAC … GTCTTGATTCGCTTGACGCTGCTG
GACGGTCTCCTTCTCCTGATGTGCTAG: 0.961 z-score
TTAGAAATGGGGTATCGATTAGTGCTA: 0.095 z-score
GAAGATCTCAGTATCGAGACGTGCTAG: -0.267 z-score
TTAGGTATCTACACTGGGTTAGTGCTA: 0.0223 z-score
GCCTTTTATTTGAAAGAAATGTGCTAG: 0.247 z-score
TTAGATATCAGTTGCGATTAGTGCTAG: 0.508 z-score
GGTACTCACCTCCAGGCTGAGTGCTAG: -0.292 z-score
TTAGGACGGGGTTTCGGTTAGTGCTAG: 3.73 z-score

Series 3
Target: Serine/threonine-protein kinase Nek11 (NEK11, Homo sapiens, UniProt Q8NG66)
Sequence of UniProt Q8NG66 (whole entry, looked up): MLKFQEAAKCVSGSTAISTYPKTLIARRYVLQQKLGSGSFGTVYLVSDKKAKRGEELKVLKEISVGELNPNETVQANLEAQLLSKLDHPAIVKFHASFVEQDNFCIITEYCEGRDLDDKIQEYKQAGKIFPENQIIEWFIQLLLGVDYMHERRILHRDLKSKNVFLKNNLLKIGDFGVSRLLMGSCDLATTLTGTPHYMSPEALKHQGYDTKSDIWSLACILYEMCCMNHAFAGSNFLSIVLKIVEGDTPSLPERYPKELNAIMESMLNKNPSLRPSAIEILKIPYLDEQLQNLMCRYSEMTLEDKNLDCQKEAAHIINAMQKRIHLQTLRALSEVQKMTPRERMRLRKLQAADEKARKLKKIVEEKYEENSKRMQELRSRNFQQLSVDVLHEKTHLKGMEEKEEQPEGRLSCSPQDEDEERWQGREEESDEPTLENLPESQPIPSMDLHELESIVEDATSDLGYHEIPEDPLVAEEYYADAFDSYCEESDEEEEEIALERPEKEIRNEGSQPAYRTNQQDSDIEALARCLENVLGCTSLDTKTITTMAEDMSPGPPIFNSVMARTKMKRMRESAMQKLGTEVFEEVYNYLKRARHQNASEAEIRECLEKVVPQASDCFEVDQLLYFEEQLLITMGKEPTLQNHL
Observed: enzyme activity
Mode: inhibitor
Concentration: 0.5 µM
Reference: control
Quantity: remaining activity
OCC(O)CCON=C1C(c2c(O)[nH]c3ccccc23)=Nc2ccccc21 (centres unmarked): 92.2%
Nc1ccc2ncnc(NCCc3ccc(Oc4ccccc4)cc3)c2c1: 105%
O=C(Nc1cccc(Nc2cc(Nc3cccc(C(F)(F)F)c3)ncn2)c1)C1CC1: 94.3%
COc1ccc(CNC(=O)Nc2ncc([N+](=O)[O-])s2)cc1: 104%
O=C1NC(=O)C(c2cn(CCCn3ccnc3)c3ccccc23)=C1Nc1ccccc1: 75.6%
Cn1sc(=O)n(Cc2ccccc2)c1=O: 102%
COc1cc2ncnc(Nc3ccc(Oc4ccccc4)cc3)c2cc1OC: 74.8%
CNC(=O)c1cc(Oc2ccc(NC(=O)Nc3ccc(Cl)c(C(F)(F)F)c3)cc2)ccn1: 105%
Nc1[nH]nc2nc3ccccc3nc12: 110%
O=S(=O)(c1cccc2cnccc12)N1CCCNCC1: 114%
Cc1ccc(Nc2nccc(N(C)c3ccc4c(C)n(C)nc4c3)n2)cc1S(N)(=O)=O: 94.8%
CO[C@H]1C[C@@H]2CC[C@@H](C)[C@@](O)(O2)C(=O)C(=O)N2CCCC[C@H]2C(=O)O[C@H]([C@H](C)C[C@@H]2CC[C@@H](O)[C@H](OC)C2)CC(=O)[C@H](C)/C=C(\C)[C@@H](O)[C@@H](OC)C(=O)[C@H](C)C[C@H](C)/C=C/C=C/C=C/1C: 73.6%
O=C1NC(=O)C(c2cn(CCCO)c3ncccc23)=C1c1cnccn1: 108%
O=C(CCCc1ccc(-c2ccccc2F)cc1)Nc1ccc(O)cc1: 100%
Oc1ccc(-c2nc(-c3ccncc3)c(-c3ccc(F)cc3)[nH]2)cc1: 80.6%

Series 4
Target: Sal-like protein 4, full length isoform A (SALL4, Homo sapiens, UniProt Q9UJQ4, residues 1-1053)
Sequence of UniProt Q9UJQ4 (whole entry, looked up): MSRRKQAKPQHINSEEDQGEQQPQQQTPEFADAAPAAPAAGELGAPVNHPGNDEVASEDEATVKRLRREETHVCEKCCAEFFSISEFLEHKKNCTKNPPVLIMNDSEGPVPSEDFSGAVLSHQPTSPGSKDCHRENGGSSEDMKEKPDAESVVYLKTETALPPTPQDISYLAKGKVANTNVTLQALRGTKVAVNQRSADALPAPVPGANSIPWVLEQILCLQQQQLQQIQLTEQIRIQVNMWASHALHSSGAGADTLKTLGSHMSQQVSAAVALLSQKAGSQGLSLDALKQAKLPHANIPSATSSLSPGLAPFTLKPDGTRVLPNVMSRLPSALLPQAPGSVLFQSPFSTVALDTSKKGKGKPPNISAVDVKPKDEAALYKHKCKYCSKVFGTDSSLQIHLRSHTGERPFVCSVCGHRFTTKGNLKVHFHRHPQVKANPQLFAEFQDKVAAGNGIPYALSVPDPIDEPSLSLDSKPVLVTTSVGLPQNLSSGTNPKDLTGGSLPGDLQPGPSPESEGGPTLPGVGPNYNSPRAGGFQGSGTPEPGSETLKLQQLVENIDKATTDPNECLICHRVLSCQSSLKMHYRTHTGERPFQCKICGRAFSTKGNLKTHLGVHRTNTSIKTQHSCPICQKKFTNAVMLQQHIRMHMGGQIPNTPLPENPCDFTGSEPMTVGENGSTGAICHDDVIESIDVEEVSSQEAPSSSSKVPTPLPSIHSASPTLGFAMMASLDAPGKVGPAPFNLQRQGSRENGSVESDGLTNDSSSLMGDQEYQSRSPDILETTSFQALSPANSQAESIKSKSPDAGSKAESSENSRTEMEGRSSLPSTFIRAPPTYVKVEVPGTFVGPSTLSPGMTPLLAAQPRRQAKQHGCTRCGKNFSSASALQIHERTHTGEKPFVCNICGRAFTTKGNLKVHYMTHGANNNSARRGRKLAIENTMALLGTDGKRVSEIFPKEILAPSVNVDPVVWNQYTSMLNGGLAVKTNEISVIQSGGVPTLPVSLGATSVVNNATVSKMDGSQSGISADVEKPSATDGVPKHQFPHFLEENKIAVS
Method: universal PBM
Form: double-stranded DNA, one strand shown
Sample: in vitro
Concentration: 600 nM
Setting: 8-mer, flanks averaged, mean of replicates
Direction: higher = stronger binding
Quantity: E-score
AGTAACTA: 0.222
CCTTTAAA: 0.0842
ACTCCTTC: -0.122
GCTTTCAA: 0.107
GCAAACCC: -0.272
GGGAGTGA: -0.0515
GTAGTTCA: 0.00498
ATGCCAGG: -0.275

For quick reference, copied from above (series 1):
Dual specificity protein kinase CLK1 (CLK1, Homo sapiens, UniProt P49759): 100%
Serine/threonine-protein kinase N1 (PKN1, Homo sapiens, UniProt Q16512): 100%
Serine/threonine-protein kinase DCLK3 (DCLK3, Homo sapiens, UniProt Q9C098): 91%
Dual specificity tyrosine-phosphorylation-regulated kinase 1A (DYRK1A, Homo sapiens, UniProt Q13627): 100%
